Measurements pooled from the literature.
Compare with care: the assays were run in different laboratories. “And” joins repeats or separate records; there may be more than shown. ± gives the spread as reported.
rep R3428I 3C-like proteinase: Replicase polyprotein 1ab, 3C-like proteinase (rep, Severe acute respiratory syndrome-related coronavirus, UniProt P0C6X7, R3428I)
Botulinum neurotoxin type A light chain: Botulinum neurotoxin type A, light chain (Clostridium botulinum, UniProt P0DPI0)
Replicase polyprotein 1a R3428I 3C-like proteinase: Replicase polyprotein 1a, 3C-like proteinase (Severe acute respiratory syndrome-related coronavirus, UniProt P0C6U8, R3428I)
Neuronal acetylcholine receptor; alpha3/beta2: Neuronal acetylcholine receptor; alpha3/beta2 (Rattus norvegicus, UniProt P04757+P12390)
Shiga-like toxin 2 subunit A A1 fragment: Shiga-like toxin 2 subunit A, A1 fragment (UniProt P09385)
Ricin A chain: Ricin, A chain (Ricinus communis, UniProt P02879)

By UniProt entry, the sequences of proteins in these tests, tags left out. Residues count along the entry.
UniProt P04757, 26-499 limits assumed: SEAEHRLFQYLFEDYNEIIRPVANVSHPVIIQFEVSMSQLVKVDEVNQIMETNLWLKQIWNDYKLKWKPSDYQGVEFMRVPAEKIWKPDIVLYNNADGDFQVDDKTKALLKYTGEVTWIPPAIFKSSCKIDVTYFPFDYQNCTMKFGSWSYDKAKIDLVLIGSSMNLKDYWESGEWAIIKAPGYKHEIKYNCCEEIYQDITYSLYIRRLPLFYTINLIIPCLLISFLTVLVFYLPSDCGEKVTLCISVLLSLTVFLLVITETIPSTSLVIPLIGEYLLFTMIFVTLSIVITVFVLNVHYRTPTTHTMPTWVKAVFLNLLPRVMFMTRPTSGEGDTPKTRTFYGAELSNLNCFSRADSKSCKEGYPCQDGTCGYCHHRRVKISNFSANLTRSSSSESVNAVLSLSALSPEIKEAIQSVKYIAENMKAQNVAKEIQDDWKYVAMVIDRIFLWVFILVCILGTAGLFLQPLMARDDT
UniProt P04757, whole entry, looked up: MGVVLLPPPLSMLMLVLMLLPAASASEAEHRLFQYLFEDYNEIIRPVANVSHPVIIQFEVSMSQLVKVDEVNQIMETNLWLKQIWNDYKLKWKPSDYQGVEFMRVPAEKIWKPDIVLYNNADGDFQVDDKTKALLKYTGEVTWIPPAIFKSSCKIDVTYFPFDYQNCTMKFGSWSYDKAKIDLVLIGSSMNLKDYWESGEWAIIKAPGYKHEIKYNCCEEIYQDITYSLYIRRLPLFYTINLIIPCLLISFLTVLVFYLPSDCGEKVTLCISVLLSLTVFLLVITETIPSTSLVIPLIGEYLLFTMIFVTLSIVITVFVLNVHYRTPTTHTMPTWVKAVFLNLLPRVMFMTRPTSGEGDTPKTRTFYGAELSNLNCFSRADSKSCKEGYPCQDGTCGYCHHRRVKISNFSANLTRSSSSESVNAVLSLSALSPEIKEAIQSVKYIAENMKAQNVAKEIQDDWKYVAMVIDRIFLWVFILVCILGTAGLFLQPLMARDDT
UniProt P12390, 25-500 limits assumed: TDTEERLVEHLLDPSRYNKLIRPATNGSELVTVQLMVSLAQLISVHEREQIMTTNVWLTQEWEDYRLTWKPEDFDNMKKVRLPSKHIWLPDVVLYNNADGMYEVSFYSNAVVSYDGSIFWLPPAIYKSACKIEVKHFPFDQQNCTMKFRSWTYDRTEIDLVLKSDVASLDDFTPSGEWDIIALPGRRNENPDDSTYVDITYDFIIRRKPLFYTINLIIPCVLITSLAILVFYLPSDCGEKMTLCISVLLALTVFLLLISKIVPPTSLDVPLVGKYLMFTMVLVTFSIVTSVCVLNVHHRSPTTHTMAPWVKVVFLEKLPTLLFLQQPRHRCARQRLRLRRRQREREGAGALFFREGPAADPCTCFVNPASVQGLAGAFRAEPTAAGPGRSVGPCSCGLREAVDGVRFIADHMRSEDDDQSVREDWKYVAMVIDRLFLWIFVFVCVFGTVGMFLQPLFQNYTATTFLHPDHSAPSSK
UniProt P12390, whole entry, looked up: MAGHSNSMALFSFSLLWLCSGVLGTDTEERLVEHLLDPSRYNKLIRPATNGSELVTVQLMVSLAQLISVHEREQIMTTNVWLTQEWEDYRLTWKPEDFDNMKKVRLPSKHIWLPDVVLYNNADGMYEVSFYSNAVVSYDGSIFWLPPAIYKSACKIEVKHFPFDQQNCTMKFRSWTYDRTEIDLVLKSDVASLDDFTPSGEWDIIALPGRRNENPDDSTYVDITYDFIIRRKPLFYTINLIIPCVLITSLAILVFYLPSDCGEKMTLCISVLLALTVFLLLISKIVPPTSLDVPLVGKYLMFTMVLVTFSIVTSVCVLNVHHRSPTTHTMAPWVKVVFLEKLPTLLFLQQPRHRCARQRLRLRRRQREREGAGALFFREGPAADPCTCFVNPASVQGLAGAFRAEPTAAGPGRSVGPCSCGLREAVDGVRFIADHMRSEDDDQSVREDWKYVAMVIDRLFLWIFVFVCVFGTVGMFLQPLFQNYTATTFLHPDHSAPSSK
UniProt P12392, 21-495 limits assumed: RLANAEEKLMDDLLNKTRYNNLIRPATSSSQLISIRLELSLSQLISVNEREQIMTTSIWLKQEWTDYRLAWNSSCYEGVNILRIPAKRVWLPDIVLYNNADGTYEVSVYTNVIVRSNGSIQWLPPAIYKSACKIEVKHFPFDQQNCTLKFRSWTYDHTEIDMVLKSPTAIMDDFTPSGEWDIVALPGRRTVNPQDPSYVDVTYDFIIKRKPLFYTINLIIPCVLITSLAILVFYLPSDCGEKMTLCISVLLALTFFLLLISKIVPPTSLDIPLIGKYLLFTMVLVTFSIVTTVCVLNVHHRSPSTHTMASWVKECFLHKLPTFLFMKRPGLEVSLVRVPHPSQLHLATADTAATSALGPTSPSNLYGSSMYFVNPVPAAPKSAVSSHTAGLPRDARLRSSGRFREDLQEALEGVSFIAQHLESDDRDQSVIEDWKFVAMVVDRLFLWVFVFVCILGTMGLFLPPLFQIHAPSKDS
UniProt P43143, whole entry M241L/F253L/V303I/V320I/I327V/A333T/K339T, looked up: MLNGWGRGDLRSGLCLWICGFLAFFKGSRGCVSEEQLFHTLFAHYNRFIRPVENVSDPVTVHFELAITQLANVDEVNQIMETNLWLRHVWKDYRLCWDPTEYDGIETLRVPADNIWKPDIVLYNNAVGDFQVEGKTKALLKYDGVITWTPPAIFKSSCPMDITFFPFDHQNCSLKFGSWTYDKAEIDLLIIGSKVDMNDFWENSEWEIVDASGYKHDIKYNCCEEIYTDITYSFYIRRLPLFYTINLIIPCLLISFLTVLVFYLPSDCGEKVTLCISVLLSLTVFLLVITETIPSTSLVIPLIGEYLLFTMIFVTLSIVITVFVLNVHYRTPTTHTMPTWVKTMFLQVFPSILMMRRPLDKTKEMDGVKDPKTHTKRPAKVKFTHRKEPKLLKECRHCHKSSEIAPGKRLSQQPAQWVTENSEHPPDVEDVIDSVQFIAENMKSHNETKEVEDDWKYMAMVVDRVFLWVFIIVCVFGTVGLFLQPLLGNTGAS
UniProt P36544, 23-502 limits assumed: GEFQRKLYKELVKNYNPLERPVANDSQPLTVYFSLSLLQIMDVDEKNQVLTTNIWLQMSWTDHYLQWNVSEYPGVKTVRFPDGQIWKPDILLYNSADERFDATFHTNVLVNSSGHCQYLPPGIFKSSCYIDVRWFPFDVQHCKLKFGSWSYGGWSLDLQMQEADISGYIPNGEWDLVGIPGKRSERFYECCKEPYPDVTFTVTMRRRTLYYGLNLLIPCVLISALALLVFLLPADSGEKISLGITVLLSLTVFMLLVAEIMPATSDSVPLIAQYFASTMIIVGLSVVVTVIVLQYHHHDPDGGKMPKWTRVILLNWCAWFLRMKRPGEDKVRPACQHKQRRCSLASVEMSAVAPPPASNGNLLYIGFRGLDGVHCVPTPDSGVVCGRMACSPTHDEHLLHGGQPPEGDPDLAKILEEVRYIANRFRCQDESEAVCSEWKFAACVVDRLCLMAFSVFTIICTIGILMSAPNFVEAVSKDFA
UniProt P35372, whole entry: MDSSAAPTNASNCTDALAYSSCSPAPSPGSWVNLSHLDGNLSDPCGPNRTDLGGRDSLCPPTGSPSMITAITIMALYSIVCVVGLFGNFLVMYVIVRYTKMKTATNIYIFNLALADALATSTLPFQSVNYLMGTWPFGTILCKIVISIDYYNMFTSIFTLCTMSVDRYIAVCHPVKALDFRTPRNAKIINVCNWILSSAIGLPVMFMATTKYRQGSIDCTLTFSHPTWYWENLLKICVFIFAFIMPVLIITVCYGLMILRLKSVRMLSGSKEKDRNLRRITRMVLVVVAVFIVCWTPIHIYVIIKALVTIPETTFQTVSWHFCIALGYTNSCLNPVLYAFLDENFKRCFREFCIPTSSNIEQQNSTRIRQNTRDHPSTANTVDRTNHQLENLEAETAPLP

C=C1C(=O)O[C@H]2[C@H]1CC/C(C)=C/CC[C@@]1(C)O[C@@H]21 has an IC50 of 0.66 µM (Replicase polyprotein 1ab, main protease (rep, Severe acute respiratory syndrome coronavirus 2, UniProt P0DTD1); luciferase reporter, inhibitor; SARS-CoV-2; 48 h).
The IC50 of O=C(/C=C/c1ccccc1)N[C@H](COC(=O)c1ccccc1)C(=O)NCc1ccccc1 is reported as 225 µM (rep R3428I 3C-like proteinase; enzyme activity, inhibitor, HPLC substrate depletion; pH 4.0).
CC[C@H](C)[C@@H]1NC(=O)[C@H](CCC(=O)O)NC(=O)[C@@H]2CCCN2C(=O)[C@H](Cc2c[nH]cn2)NC(=O)[C@H](CCCCC(=O)O)NC(=O)[C@H](CC(C)C)NC(=O)[C@H](Cc2c[nH]cn2)NC(=O)[C@@H]2CSSC[C@H](NC(=O)CN)C(=O)N[C@@H](CSSC[C@@H](C(N)=O)NC1=O)C(=O)N[C@@H](CO)C(=O)N[C@@H](Cc1c[nH]cn1)C(=O)N1CCC[C@H]1C(=O)N[C@@H](C)C(=O)N2 gave an IC50 of 0.341 µM (Neuronal acetylcholine receptor; alpha3/beta4 (Rattus norvegicus, UniProt P04757+P12392); ACh-evoked current, antagonist, two-electrode voltage clamp; Xenopus laevis oocytes; together with: ACh 300 µM).
CC(C)COC(=O)N[C@H](C(=O)N[C@@H](CC(C)C)C(=O)N[C@@H](C[C@@H]1CCNC1=O)C(=O)c1nccs1)C(C)C has an IC50 of 250 µM (rep R3428I 3C-like proteinase; enzyme activity, inhibitor, HPLC; 60 min, 37 °C, together with: substrate 111 µM).
The IC50 of CC(=O)Nc1ccc(/C=N/Nc2ccc(C(=O)c3c(C)cc4ccccn34)cc2[N+](=O)[O-])cc1 is reported as greater than 200 µM (Botulinum neurotoxin type A light chain; inhibitor, FRET, YFP-SNAP25-CFP substrate; no reducing agent).
For CC(C)C[C@@H]1NC(=O)[C@H](CCC(=O)O)NC(=O)[C@@H]2CCCN2C(=O)[C@H](Cc2c[nH]cn2)NC(=O)[C@H](CC(N)=O)NC(=O)[C@H](C(C)C)NC(=O)[C@H](CC(N)=O)NC(=O)[C@@H]2CSSC[C@H](NC(=O)CN)C(=O)N[C@@H](CSSC[C@@H](C(N)=O)NC1=O)C(=O)N[C@@H](CO)C(=O)N[C@@H](Cc1c[nH]cn1)C(=O)N1CCC[C@H]1C(=O)N[C@@H](C)C(=O)N2, the IC50 was 0.016 µM (Chrna3/Chrnb2/Chrna6, with beta3 subunit (Rattus norvegicus, UniProt P04757+P12390+P43143); ion current, antagonist, two-electrode voltage clamp; Xenopus laevis oocytes; together with: 100 µM acetylcholine).
O=C(/C=C/c1ccccc1)N[C@@H](c1ccccc1)[C@@H](OC(=O)CCc1ccccc1)C(=O)NC1CCCCC1 has an IC50 of 65 µM (Replicase polyprotein 1a R3428I 3C-like proteinase; enzyme activity, inhibitor; pH 4.0).
For C[C@@H]1NC(=O)[C@H](CCCNC(=N)N)NC(=O)[C@H](CCCNC(=N)N)NC(=O)[C@H](CCCNC(=N)N)NC(=O)[C@H](CO)NC(=O)[C@@H]2CSSC[C@H](NC(=O)CN)C(=O)N[C@@H](CSSC[C@@H](C(N)=O)NC(=O)[C@H](CO)NC(=O)[C@H](CCCNC(=N)N)NC1=O)C(=O)N[C@@H](CO)C(=O)N[C@@H](Cc1c[nH]cn1)C(=O)N1CCC[C@H]1C(=O)N[C@@H](C)C(=O)N2, the IC50 was 0.177 µM (CHRNA7 (Homo sapiens, UniProt P36544); ion current, antagonist, two-electrode voltage clamp; Xenopus oocytes; holding -70 mV, together with: 100 µM acetylcholine).
For CNC(=O)ON=C(C)SC, the IC50 was 15 µM (Acetylcholinesterase (Cavia porcellus, UniProt D3YE96); Ellman).
With O=C(O)c1cc(-c2ccc(-c3c(-c4ccc5c(c4)OCO5)noc3-c3ccsc3)cc2)nc2ccccc12 the IC50 was 56 µM (Botulinum neurotoxin type A light chain; inhibitor, FRET, YFP-SNAP25-CFP substrate; 1.25 mM DTT).
For CC(C)C[C@H](NC(=O)[C@@H](NC(=O)COc1ccccc1)C(C)C)C(=O)N[C@@H](C[C@@H]1CCNC1=O)C(=O)c1nc2ccccc2s1, the IC50 was 2.3 µM (rep R3428I 3C-like proteinase; enzyme activity, inhibitor, HPLC; 60 min, 37 °C, together with: substrate 111 µM).
With CC(C)C[C@@H]1NC(=O)[C@H](CCC(=O)O)NC(=O)[C@@H]2CCCN2C(=O)[C@H](Cc2c[nH]cn2)NC(=O)[C@H](CCCC(=O)O)NC(=O)[C@H](CC(C)C)NC(=O)[C@H](Cc2c[nH]cn2)NC(=O)[C@@H]2CSSC[C@H](NC(=O)CN)C(=O)N[C@@H](CSSC[C@@H](C(N)=O)NC1=O)C(=O)N[C@@H](CO)C(=O)N[C@@H](Cc1c[nH]cn1)C(=O)N1CCC[C@H]1C(=O)N[C@@H](C)C(=O)N2 the IC50 was 0.00301 µM (Neuronal acetylcholine receptor; alpha3/beta2; ion current, antagonist, two-electrode voltage clamp; Xenopus laevis oocytes; together with: 100 µM acetylcholine).
For COc1ccc([C@@H]2CC(=O)c3c(O)cc(O)cc3O2)cc1O, the IC50 was 60 µM and 59.9 µM (Replicase polyprotein 1ab, 3C-like proteinase (rep, Severe acute respiratory syndrome-related coronavirus, UniProt P0C6X7); 3CLpro cleavage, inhibitor, ELISA; 3 h).
For CC(C)C[C@H](NC(=O)[C@@H](NC(=O)COc1ccccc1)C(C)C)C(=O)N[C@@H](Cc1c[nH]cn1)C(=O)c1nccs1, the IC50 was 210 µM (rep R3428I 3C-like proteinase; enzyme activity, inhibitor, HPLC; 60 min, 37 °C, together with: substrate 111 µM).
CSCC[C@H](NC(=O)[C@H](CC(=O)O)NC(=O)[C@H](CC(=O)O)NC(=O)[C@H](CC(=O)O)NC(=O)[C@H](CO)NC(=O)[C@H](CCC(=O)O)NC(=O)[C@H](CCC(=O)O)NC(=O)[C@@H](N)CO)C(=O)NCC(=O)N[C@@H](Cc1ccccc1)C(=O)NCC(=O)N[C@@H](CC(C)C)C(=O)N[C@@H](Cc1ccccc1)C(=O)N[C@@H](CC(=O)O)C(=O)O gave an IC50 of 29 ± 5 µM (Shiga-like toxin 2 subunit A A1 fragment; ribosome depurination; yeast ribosomes; pH 7.4).
O=C(/C=C/c1ccccc1)N[C@@H](COC(=O)c1ccncc1)C(=O)NC1CCCCC1 gave an IC50 of 175 µM (rep R3428I 3C-like proteinase; enzyme activity, inhibitor, HPLC substrate depletion; pH 4.0).
The IC50 of O=C(c1ccc2c(c1)OCO2)C1CCCN(C2CCN(CCc3ccccc3)CC2)C1 (stereo not drawn) is reported as 0.1 µM (Botulinum neurotoxin type A light chain; inhibitor, FRET, YFP-SNAP25-CFP substrate; no reducing agent).
O=C(/C=C/c1ccccc1)N[C@@H](COC(=O)CCc1ccccc1)C(=O)NC1CCCCC1 gave an IC50 of 120 µM (rep R3428I 3C-like proteinase; enzyme activity, inhibitor, HPLC substrate depletion; pH 4.0).
CC(C)C[C@H](NC(=O)[C@@H](NC(=O)OCc1ccc([N+](=O)[O-])cc1)C(C)C)C(=O)N[C@@H](C[C@@H]1CCNC1=O)C(=O)c1nccs1 has an IC50 of 36 µM (rep R3428I 3C-like proteinase; enzyme activity, inhibitor, HPLC; 60 min, 37 °C, together with: substrate 111 µM).
With Nc1nc2nc(C(=O)NCc3ccco3)cnc2c(=O)[nH]1 the IC50 was 380 µM (Ricin A chain; recovery of translation, inhibitor, in vitro luciferase translation; rabbit reticulocyte lysate).
With CSCC[C@H](NC(=O)[C@H](CC(=O)O)NC(=O)[C@@H](N)CC(=O)O)C(=O)NCC(=O)N[C@@H](Cc1ccccc1)C(=O)NCC(=O)N[C@@H](CC(C)C)C(=O)N[C@@H](Cc1ccccc1)C(=O)N[C@@H](CC(=O)O)C(=O)O the IC50 was 26 ± 4 µM (Shiga-like toxin 2 subunit A A1 fragment; ribosome depurination; yeast ribosomes; pH 7.4).
O=C(/C=C/c1ccccc1)N[C@@H](COC(=O)c1cc([N+](=O)[O-])cc([N+](=O)[O-])c1)C(=O)NC1CCCCC1 gave an IC50 of 250 µM (rep R3428I 3C-like proteinase; enzyme activity, inhibitor, HPLC substrate depletion; pH 4.0).
CC(C)C[C@@H]1NC(=O)[C@H](CCC(=O)O)NC(=O)[C@@H]2CCCN2C(=O)[C@H](Cc2c[nH]cn2)NC(=O)[C@H](CC(N)=O)NC(=O)[C@H](C(C)C)NC(=O)[C@H](Cc2ccc(O)cc2)NC(=O)[C@@H]2CSSC[C@H](NC(=O)CN)C(=O)N[C@@H](CSSC[C@@H](C(N)=O)NC1=O)C(=O)N[C@@H](CO)C(=O)N[C@@H](Cc1c[nH]cn1)C(=O)N1CCC[C@H]1C(=O)N[C@@H](C)C(=O)N2 gave an IC50 of 0.00918 µM (Neuronal acetylcholine receptor; alpha3/beta2; ion current, antagonist, two-electrode voltage clamp; Xenopus laevis oocytes; together with: 100 µM acetylcholine).
With Nc1nc2nc(C(=O)NCCNc3ccccc3)cnc2c(=O)[nH]1 the IC50 was 210 µM (Ricin A chain; recovery of translation, inhibitor, in vitro luciferase translation; rabbit reticulocyte lysate).
COc1cc(/C=C/C(=O)N[C@@H](COC(=O)c2ccccc2)C(=O)NC2CCCCC2)cc(OC)c1 has an IC50 of 100 µM (rep R3428I 3C-like proteinase; enzyme activity, inhibitor, HPLC substrate depletion; pH 4.0).
NC(=O)c1cnc2c(=O)[nH]c(N)nc2n1: IC50 “no inhibition” (Ricin A chain; recovery of translation, inhibitor, in vitro luciferase translation; rabbit reticulocyte lysate).
For CC(C)C[C@H](NC(=O)[C@@H](NC(=O)COc1ccc(N(C)C)cc1)C(C)C)C(=O)N[C@@H](C[C@@H]1CCNC1=O)C(=O)c1nc2ccccc2s1, the IC50 was 0.65 µM (rep R3428I 3C-like proteinase; enzyme activity, inhibitor, HPLC; 60 min, 37 °C, together with: substrate 111 µM).
O=C(/C=C/c1ccccc1)N[C@H](COC(=O)/C=C/c1ccccc1)C(=O)NC1CCCCC1 gave an IC50 of 340 µM (rep R3428I 3C-like proteinase; enzyme activity, inhibitor, HPLC substrate depletion; pH 4.0).
With CCCCCc1cc(O)c([C@@H]2C=C(C)CC[C@H]2C(C)C)c(O)c1 the IC50 was 0.021 µM (OPRM1 (Homo sapiens, UniProt P35372); cAMP level, antagonist; HEK293 expressing human µ-opioid receptor; together with: fentanyl 500 pM (EC95)).
The IC50 of O=C(/C=C/c1ccccc1)N[C@@H](COC(=O)c1ccccc1)C(=O)NC1CCCCC1 is reported as 125 µM (rep R3428I 3C-like proteinase; enzyme activity, inhibitor, HPLC substrate depletion; pH 4.0).
For Cc1cc(N)c2cc(NC(=O)c3cccc(-c4ccc(N(C)C)cc4)c3)ccc2n1, the IC50 was 17 µM (Lethal factor (Bacillus anthracis, UniProt P15917); enzyme activity, inhibitor, FRET; 30 min, 37 °C, together with: 20 µM peptide substrate).
The IC50 of COc1ccccc1/C=C/C(=O)N[C@@H](COC(=O)c1ccccc1)C(=O)NC1CCCCC1 is reported as 155 µM (rep R3428I 3C-like proteinase; enzyme activity, inhibitor, HPLC substrate depletion; pH 4.0).
O=C(/C=C/c1ccccc1)N[C@@H](c1ccccc1)[C@@H](OC(=O)c1ccccc1)C(=O)NC1CCCCC1 gave an IC50 of 43 µM (Replicase polyprotein 1a R3428I 3C-like proteinase; enzyme activity, inhibitor; pH 4.0).

Some of these lines once more:
For CNC(=O)ON=C(C)SC, the IC50 was 15 µM (Acetylcholinesterase (Cavia porcellus, UniProt D3YE96); Ellman).
With O=C(O)c1cc(-c2ccc(-c3c(-c4ccc5c(c4)OCO5)noc3-c3ccsc3)cc2)nc2ccccc12 the IC50 was 56 µM (Botulinum neurotoxin type A light chain; inhibitor, FRET, YFP-SNAP25-CFP substrate; 1.25 mM DTT).
For CC(C)C[C@H](NC(=O)[C@@H](NC(=O)COc1ccccc1)C(C)C)C(=O)N[C@@H](C[C@@H]1CCNC1=O)C(=O)c1nc2ccccc2s1, the IC50 was 2.3 µM (rep R3428I 3C-like proteinase; enzyme activity, inhibitor, HPLC; 60 min, 37 °C, together with: substrate 111 µM).
With CC(C)C[C@@H]1NC(=O)[C@H](CCC(=O)O)NC(=O)[C@@H]2CCCN2C(=O)[C@H](Cc2c[nH]cn2)NC(=O)[C@H](CCCC(=O)O)NC(=O)[C@H](CC(C)C)NC(=O)[C@H](Cc2c[nH]cn2)NC(=O)[C@@H]2CSSC[C@H](NC(=O)CN)C(=O)N[C@@H](CSSC[C@@H](C(N)=O)NC1=O)C(=O)N[C@@H](CO)C(=O)N[C@@H](Cc1c[nH]cn1)C(=O)N1CCC[C@H]1C(=O)N[C@@H](C)C(=O)N2 the IC50 was 0.00301 µM (Neuronal acetylcholine receptor; alpha3/beta2; ion current, antagonist, two-electrode voltage clamp; Xenopus laevis oocytes; together with: 100 µM acetylcholine).
For COc1ccc([C@@H]2CC(=O)c3c(O)cc(O)cc3O2)cc1O, the IC50 was 60 µM and 59.9 µM (Replicase polyprotein 1ab, 3C-like proteinase (rep, Severe acute respiratory syndrome-related coronavirus, UniProt P0C6X7); 3CLpro cleavage, inhibitor, ELISA; 3 h).
